Measured values from different studies.
Lines come from different studies, so protocols differ. “And” joins repeats or separate records; there may be more than shown. ± gives the spread as reported. In brackets after ≈: the same amount, converted by molar mass.
Sequence of UniProt P33261 (whole entry, looked up): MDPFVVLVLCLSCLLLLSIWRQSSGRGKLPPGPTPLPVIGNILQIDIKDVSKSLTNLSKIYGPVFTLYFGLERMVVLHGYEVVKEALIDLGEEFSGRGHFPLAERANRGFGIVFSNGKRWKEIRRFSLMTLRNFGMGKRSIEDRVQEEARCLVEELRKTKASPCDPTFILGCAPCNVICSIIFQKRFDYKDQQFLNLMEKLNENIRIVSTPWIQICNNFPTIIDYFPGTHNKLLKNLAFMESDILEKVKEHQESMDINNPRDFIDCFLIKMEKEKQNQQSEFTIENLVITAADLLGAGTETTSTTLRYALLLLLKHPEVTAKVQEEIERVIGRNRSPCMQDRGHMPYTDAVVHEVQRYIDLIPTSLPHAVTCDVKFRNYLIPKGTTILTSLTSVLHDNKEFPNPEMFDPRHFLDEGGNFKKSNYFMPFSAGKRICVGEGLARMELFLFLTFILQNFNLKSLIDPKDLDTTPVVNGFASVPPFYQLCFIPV

Structure (SMILES)	target or system	assay	test system	setting	scale	measurement	value
CCCCCCCOc1ccc(CC[C@](N)(CO)COP(=O)(O)O)cc1C(F)(F)F			healthy men, urine	oral, 0.25 mg once daily, day 1, fed state	baseline: dose	urinary excretion (0-24 h)	0%
CCCCN1C(=O)c2cccc3c(NCCCCCCCCCCN4CCOCC4)ccc(c23)C1=O			ethylene glycol			molar extinction coefficient	13800 M⁻¹ cm⁻¹
O=C(NS(=O)(=O)c1cccs1)c1cc2ccccc2n1Cc1ccc(Br)c2ccccc12			KM mouse, chronic hyperuricaemia model	dose not given, day 3		body weight	27.6 g and 25.4 g and 26.6 g and 26.8 g and 28.2 g
C=C[C@]1(C)C[C@@H](OC(=O)CSc2ccc(NC(=O)c3ccco3)cc2)[C@]2(C)[C@H](C)CC[C@]3(CCC(=O)[C@H]32)[C@@H](C)[C@@H]1O			chicken, Mycoplasmoides gallisepticum infected, plasma	intramuscular, 80 mg/kg		Tmax	21.4 min and 21.6 min
CNC(=O)C[C@H](Cc1ccc(C#N)cc1)NC(=O)c1cc(-c2ccc(CN[C@H](C)c3ccc(C)cc3)o2)ccc1Cl			mouse liver microsomes	1 µM		blood clearance	83.3 mL/min/kg
CCCCN1C(=O)c2cccc3c(NCCCN4CCOCC4)ccc(c23)C1=O			DMF			molar extinction coefficient	4900 M⁻¹ cm⁻¹
CN1CCC[C@]1(C)/C=C/S(=O)(=O)NC(=O)Nc1c2c(cc3c1CCC3)CCC2		measured: Constipation, possibly related	human	oral, 100 mg twice daily, 14 days, multiple ascending dose		subjects with adverse event	0%
CCCC[C@H](OC(C)=O)c1ccccc1C(=O)O			Sprague-Dawley rat, both sexes, whole blood	intravenous, 20 mg/kg, single dose		Cmax	49300 ± 4000 ng/mL
COc1cc(OCCN2CCOCC2)cnc1-c1nc2cc(OC(F)(F)F)ccc2[nH]1			Balb/c mouse, female, plasma	oral gavage, 100 mg/kg		Vd/F	754 mL
Cc1cc(-c2ccc(C(=O)[C@@H]3CCCC[C@H]3C(=O)Nc3cnn4c3C(=O)NCC4)cc2)[nH]n1			human, faeces	oral, 200 mg	baseline: dose	recovery of radioactivity	75.8% and 82.1% and 81.3% and 76.8% and 74.4% and 85.4%
CCCCN1C(=O)c2cccc3c(NCCCCCN4CCOCC4)ccc(c23)C1=O			chloroform			molar extinction coefficient	5800 M⁻¹ cm⁻¹
CC[C@H](C)[C@H](NC(=O)[C@H](Cc1ccc(O)cc1)NC(=O)[C@@H](NC(=O)[C@H](CCCNC(=N)N)NC(=O)[C@@H](N)CC(=O)O)C(C)C)C(=O)N[C@@H](Cc1c[nH]cn1)C(=O)N1CCC[C@H]1C(=O)O		LC-MS/MS	Sprague-Dawley rats, plasma	subcutaneous, 10 mg/kg/day, day 27		elimination rate constant	0.043 min⁻¹
C=CC(=O)N1CCCC(n2c(=O)c3ncccc3n(Cc3ccc(Oc4ccccc4)cc3)c2=O)C1 (stereo not shown)			BALB/c mice, male, plasma	intraperitoneal, 200 mg/kg, 1 h		plasma concentration	91000 ng/mL
CCCCN1C(=O)c2cccc3c(NCCCCCCCCN4CCOCC4)ccc(c23)C1=O			water	pH 6.0		molar extinction coefficient	11000 M⁻¹ cm⁻¹
OCCCN1CC[C@@H]2C[C@H]1c1cc(-c3ccc(C(F)(F)F)cc3)ccc12			brain	ip, concentration not given		Tmax	120 min
Nc1nc2cnc(C(=O)N3CCOC[C@@H]3c3ccc(C(F)(F)F)cc3)cc2c2c1COC2			rat	oral, 2 mg/kg		oral bioavailability	23%
COC1CN([C@H]2CC[C@H]([C@@]3(C)Oc4c(Cl)cc(C(=O)NCc5c(SC)cc(C)[nH]c5=O)c(C)c4O3)CC2)C1		RNA-seq, measured: PRXL2A mouse homolog	mouse, HT-1376 xenograft, whole blood	dose not given	baseline: vehicle	log2 fold change	2.56
C=CC(=O)Nc1cc(Nc2nccc(-c3c[nH]c4ccccc34)n2)c(OC)cc1N(C)CCN(C)C		storage stability	human dried blood spot	10 d, on ice, LLOQ level		recovery	68.9%
CC(C)[C@H](NC(=O)[C@H](Cc1c[nH]c2ccccc12)NC(=O)[C@H](CCCNC(=N)N)NC(=O)[C@H](CCCNC(=N)N)NC(=O)[C@@H](NC(=O)[C@@H](NC(=O)[C@H](CCCNC(=N)N)NC(=O)[C@@H](NC(=O)[C@@H](NC(=O)[C@H](CCCNC(=N)N)NC(=O)[C@H](CCCNC(=N)N)NC(=O)[C@@H](NC(=O)[C@H](Cc1c[nH]c2ccccc12)NC(=O)[C@H](CCCNC(=N)N)NC(=O)[C@H](CCCNC(=N)N)NC(=O)[C@@H](NC(=O)[C@H](CCCNC(=N)N)NC(=O)[C@H](CCCNC(=N)N)NC(=O)[C@@H](NC(=O)[C@H](Cc1c[nH]c2ccccc12)NC(=O)[C@H](CCCNC(=N)N)NC(=O)[C@@H](N)CCCNC(=N)N)C(C)C)C(C)C)C(C)C)C(C)C)C(C)C)C(C)C)C(C)C)C(=O)N[C@@H](CCCNC(=N)N)C(=O)N[C@@H](CCCNC(=N)N)C(=O)O		dipstick	CD1 mouse, urine	intravenous, 15 mg/kg, 6 h, [14C]-labelled compound		protein	30 mg/dL
O=C1C2CC3CC1CC(C(=O)N1CCN(c4ccc([N+](=O)[O-])c5ncccc45)CC1)(C3)C2	Salmonella typhimurium	Ames test	TA100	0.02 µg/well, with S9	baseline: vehicle	revertant fold increase	1
O=C(Nc1cnccc1-c1ccc([18F])cc1)c1ccnc(NC(=O)C2CC2)c1		ex vivo biodistribution, gamma counting	GSK-3β overexpressing transgenic mouse, late stage, brain stem	intravenous, 1.26 MBq/animal, 120 min post-injection		mean SUV	0.17
CCCCN1C(=O)c2cccc3c(NCCCCCCN4CCOCC4)ccc(c23)C1=O			DMF			molar extinction coefficient	13500 M⁻¹ cm⁻¹
CC(=O)N([O-])CCCCCNC(=O)CCC(=O)N([O-])CCCCCNC(=O)CCC(=O)N([O-])CCCCCN.[89Zr+4]		radio-TLC	aqueous buffer	7 d, pH 8.5, 37 °C, 89Zr-labelled complex, with: DTPA 1000-fold excess		intact complex	77.3 ± 1.4%

Structure (SMILES)	target or system	assay	test system	setting	scale	measurement	value
Cc1nc(N)nc2c1C(=O)N[C@@H](c1ccc(F)cc1-c1cccc(OCC[18F])n1)C2		ex vivo biodistribution	C57BL/6 mouse, whole blood	intravenous, 1 MBq, 30 min, baseline, vehicle		blood uptake	5.31 ± 0.37 %ID
CN(O)C(=O)CCC(=O)NCCCN(CCCCN(CCCNC(=O)CCC(=O)N(C)O)C(=O)CCC(=O)N(C)O)C(=O)CCC(=O)N(C)O.[89Zr]		radio-TLC	aqueous buffer	7 d, pH 7.2, 37 °C, 89Zr-labelled complex, with: FeCl3 100-fold excess		intact complex	62.3 ± 0.3%
C=C(NC(=O)c1csc(-c2nc3c(cc2O)-c2nc(cs2)C(=O)NC(C(C)O)C(=O)NC(=C(C)OC)c2nc(cs2)C(=O)NC2c4nc(cs4)C(=O)NC(COC(=O)c4c5c6c(cccc6n4O)COC(=O)C(OC4CC(C)(O)C(N(C)C)C(C)O4)C2OC5)c2nc-3cs2)n1)C(N)=O (stereo not shown)			Sprague-Dawley rat, female, plasma	intravenous infusion, 6 mg/kg, multiple doses, day 7		Cmax	3970 ng/mL
C/C(N)=N/C(=N\S(=O)(=O)c1ccc(C(F)(F)F)cc1)N1C[C@H](c2ccccc2)C(c2ccc(Cl)cc2)=N1			Sprague-Dawley rat, male, plasma	intravenous, 2 mg/kg		AUC(0-inf)	2800 ng·h/mL
C=CC(=O)Nc1cccc(Cn2ncc3cnc(Nc4cnn(CCOC)c4)nc32)c1			dog, Beagle, both sexes, whole blood	5 µM, 15 min		remaining compound	89%
O=C1CCC(N2Cc3cc(C(=O)O)c(F)cc3C2=O)C(=O)N1 (stereo not shown)			cynomolgus monkey, male	oral, 0.3 mg/kg parent drug, 0.5 h		plasma concentration	1.4 ± 1 ng/mL
O=C(Nc1cnccc1-c1ccc([18F])nc1)c1ccnc(NC(=O)C2CC2)c1			mice, transgenic, GSK-3β, early-stage, skin	intravenous, dose not given, 120 min		SUV	0.102
C=CC(=O)Nc1cc(Nc2nccc(-c3cn(C)c4ccccc34)n2)c(OC)cc1N(C)CCNC		storage stability	human plasma	24 h, on ice, low QC level		recovery	89.9%
O=C(O)/C=C\c1cc2ccoc2cc1O[C@@H]1O[C@H](CO)[C@@H](O)[C@H](O)[C@H]1O			rat, plasma	oral, dose not given, dosed as combined Eu and Pc extracts	baseline: single extracts	Cmax decrease	259 ± 144 ng/mL
COc1ccc(CCC(C)N2CCc3cc(O[11CH3])c(OC)cc3C2)cc1 (racemic)			brain homogenate	injection, 30 min	baseline: radioactivity	hydrophilic metabolite fraction	3.3 ± 1%
N[C@@H](CNC(=O)N[C@@H](CS)C(=O)NCC(=O)O)C(=O)O			C57BL/6 mouse	intranasal, dose not given		brain-to-plasma AUC ratio	25.7 ± 5.88
Oc1ccccc1/C=N/Nc1nnc(N/N=C/c2ccccc2O)c2ccccc12		haemolysis	human	10 mM, 45 min		haemolysis	12.9%
Cc1n[nH]c(C)c1CCCOc1cc(C(=O)NCCCCC(NC(=O)CN2CCN(CC(=O)[O-])CCN(CC(=O)[O-])CCN(CC(=O)[O-])CC2)C(=O)NCC2CCC(C(=O)NC(Cc3ccc4ccccc4c3)C(=O)NCCCCC(NC(=O)NC(CCC(=O)O)C(=O)O)C(=O)O)CC2)ccc1F.[68Ga+3] (stereo not shown)		micro-PET/CT	mouse 22Rv1 xenograft, tumour	1 h post-injection		mean tumour uptake	9.57 ± 0.94 %ID/g
C=Cc1cccc([B-]23OC(=O)C(c4ccccc4)=N[N+]2=Cc2ccc(N(CC)CC)cc2O3)c1 (stereo not shown)			toluene			molar absorption coefficient	52000 M⁻¹ cm⁻¹
COc1cccc(OC)c1-c1cc(C(=O)NC2(C(=O)O)C3CC4CC(C3)CC2C4)nn1-c1ccc(C(=O)NCCNC(=O)[C@H](CCCCNC(=O)[C@H](CC(C)C)NC(=O)C2OC2C(=O)O)NC(=O)CN2CCN(CC(=O)[O-])CCN(CC(=O)[O-])CCN(CC(=O)[O-])CC2)cc1C(C)C.[177Lu+3] (mixture of isomers)			mouse, HT-29 xenograft	4 h post injection, biodistribution	baseline: tumour over brain uptake	tumour-to-brain ratio	61.8
CC[C@H](C)[C@@H]1NC(=O)[C@H](Cc2ccc(O)cc2)NC(=O)CCCSC[C@@H](C(=O)N(CC(=O)N[C@@H](CC(C)C)C(=O)NCC(N)=O)Cc2ccc(F)cc2)NC(=O)[C@H](CC(N)=O)NC(=O)[C@H](CCC(N)=O)NC1=O			human	intranasal, 200 µg repeated doses		drug-related dry mouth	50%
CNC(=O)C1CCCN(C(=O)C2CC3CCC2N3C(=O)[C@@H]2C[C@@H](O)CN2C(=O)NCc2cccc(Cl)c2F)C1 (mixture of isomers)	CYP2C19 (Homo sapiens, UniProt P33261)	enzyme activity, inhibitor, time-dependent inhibition		0.617 µM, preincubated with NADPH	baseline: negative control	remaining activity	103%
[123I]c1ccc2nc(-c3ccc(-n4ccnn4)nc3)cn2c1			male Wistar rat, pancreas	intravenous, 4 MBq, 3 h		tracer uptake	0.035 %ID/g
CCC(C(=O)Nc1ccc(C(N)=O)c(F)c1)n1cc(OC)c(-c2cc(Cl)ccc2-n2cc(C(F)(F)F)nn2)cc1=O (stereo not shown)			healthy male humans	50 mg, maximum intensity		mild drug-related adverse events	7.1%
COCC1CN(C2CCN(c3cc(OC)c(Nc4ncc(Br)c(Nc5ccc6c(c5P(C)(C)=O)OCCO6)n4)cc3C)CC2)C1			EGFR-mutant NSCLC patients, plasma	oral, 30 mg multiple doses, geometric mean		Cmin	242 ng/mL
Cc1ccc(C(NC(=O)c2cc(-c3ccccc3)n(-c3ccccc3)n2)c2ccncc2)cc1 (stereo not shown)			PBS	pH 7.4		thermodynamic solubility	0.44 µg/mL (≈ 0.99 µM)
Cc1c(C(N)=O)cc(Cl)c2c1O[C@@](C)([C@H]1CC[C@H](N(C)C)CC1)O2		radiochromatography	human, urine	oral, 200 mg	baseline: dose	urinary excretion	1% and 0.6% and 0.8%
COc1ccc([C@@H]2CC(=O)c3c(O)cc(O[C@@H]4O[C@H](CO)[C@@H](O)[C@H](O)[C@H]4O[C@@H]4O[C@@H](C)[C@H](O)[C@@H](O)[C@H]4O)cc3O2)cc1O			Sprague-Dawley rat, male, lean, plasma	intravenous, 4 mg/kg		Cmax	4.16 ± 3.68 ng/mL

A few entries again:
Structure (SMILES)	target or system	assay	test system	setting	scale	measurement	value
C=CC(=O)N1CCCC(n2c(=O)c3ncccc3n(Cc3ccc(Oc4ccccc4)cc3)c2=O)C1 (stereo not shown)			BALB/c mice, male, plasma	intraperitoneal, 200 mg/kg, 1 h		plasma concentration	91000 ng/mL
CCCCN1C(=O)c2cccc3c(NCCCCCCCCN4CCOCC4)ccc(c23)C1=O			water	pH 6.0		molar extinction coefficient	11000 M⁻¹ cm⁻¹
OCCCN1CC[C@@H]2C[C@H]1c1cc(-c3ccc(C(F)(F)F)cc3)ccc12			brain	ip, concentration not given		Tmax	120 min
